Experimental data gathered from unrelated publications.
Lines come from different studies, so protocols differ.

| Structure (SMILES) | assay | test system | setting | quantity | value |
| --- | --- | --- | --- | --- | --- |
| C=CCNc1c(O)cc2c(O)c1C[C@@H](C)C[C@H](OC)[C@H](O)[C@@H](C)/C=C(\C)[C@H](OC(N)=O)[C@@H](OC)/C=C\C=C(/C)C(=O)N2 | – | unresectable or metastatic STS, GIST, other | intravenous, 400 mg/m^2 | patients with diarrhoea TEAE | 56% |
| CC(=O)c1c(C)c2cnc(Nc3ccc(C4CCN(CCS(C)(=O)=O)CC4)cn3)nc2n(C2CCCC2)c1=O | – | HR+/HER2- advanced breast cancer patients | oral, 100 mg bid, all grades, monotherapy arm | patients with platelet count decreased | 46.7% |
| C[C@@H]1OC(=O)NN=C1c1ccc(-c2ccc(F)cc2)c(C(F)(F)F)c1 | – | patients, phase I trial | oral, dose not given, all arms, worst grade 1 | patients with abdominal distension | 20% |
| Cc1cc(OCCOCCC(F)(F)P(=O)(O)O)ccc1CCc1cnc2c(N)nc3cc(CCC(=O)O)ccc3c2c1 | refers to: anemia | adults with advanced solid tumours | dose not given, by treatment group, all grades | patients with non-serious AE | 23.8% |
| Nc1nc2cc(-c3ccc4ncc(C(=O)N5CCOCC5)n4c3)ccc2o1 | refers to: Hypokalemia | advanced solid tumour patients | dose not given | patients with adverse event | 1% |
| N[C@@H]1c2ccccc2OC12CCN(c1cnc3c(N4CCCc5ncccc54)n[nH]c3n1)CC2 | – | advanced solid tumour patients | oral, 50 mg once daily | patients with grade ≥3 TEAE | 33.3% |
| CCN(CCO)CCCC(C)Nc1ccnc2cc(Cl)ccc12 (stereo not shown) | refers to: Hypomagnesemia grade 1 | newly diagnosed glioblastoma patients | oral, 400 mg/dose, with radiotherapy and temozolomide | patients with adverse event | 14% |
| CN1CC[C@@H](c2c(O)cc(O)c3c(=O)cc(-c4ccc(C(F)(F)F)cc4Cl)oc23)[C@@H]1CO | refers to: rectal abscess | AML | oral, 100 mg, grade 3 to 4, intermittent dosing | patients with adverse event | 33.3% |
| O=C1Nc2cc3[nH]nc(-c4ccncc4)c3cc2CN1Cc1ccccc1 | CTCAE v4.03 | advanced solid tumour patients | intravenous, 1.8 mg/kg, schedules 1/2 | patients with ≥1 TEAE | 100% |
| COc1c(OCCCN2CCOCC2)ccc2c1N=C(NC(=O)c1cnc(N)nc1)N1CCN=C21 | refers to: other investigations, any grade | patients with advanced malignancies | intravenous, dose not given, all cohorts, with: gemcitabine | patients with adverse events | 30% |

For quick reference, copied from above:
| Structure (SMILES) | assay | test system | setting | quantity | value |
| --- | --- | --- | --- | --- | --- |
| CC(=O)c1c(C)c2cnc(Nc3ccc(C4CCN(CCS(C)(=O)=O)CC4)cn3)nc2n(C2CCCC2)c1=O | – | HR+/HER2- advanced breast cancer patients | oral, 100 mg bid, all grades, monotherapy arm | patients with platelet count decreased | 46.7% |
